Results from different studies.
Compare with care: the assays were run in different laboratories. ± marks the error that the study gave. In brackets after ≈: the same amount, converted by molar mass.
cyp121: Mycocyclosin synthase (cyp121, Mycobacterium tuberculosis, UniProt P9WPP7)

Sequences of proteins named here, by UniProt entry; tags and fusion partners are left off. Residues count along the entry.
UniProt P9WPP7, whole entry: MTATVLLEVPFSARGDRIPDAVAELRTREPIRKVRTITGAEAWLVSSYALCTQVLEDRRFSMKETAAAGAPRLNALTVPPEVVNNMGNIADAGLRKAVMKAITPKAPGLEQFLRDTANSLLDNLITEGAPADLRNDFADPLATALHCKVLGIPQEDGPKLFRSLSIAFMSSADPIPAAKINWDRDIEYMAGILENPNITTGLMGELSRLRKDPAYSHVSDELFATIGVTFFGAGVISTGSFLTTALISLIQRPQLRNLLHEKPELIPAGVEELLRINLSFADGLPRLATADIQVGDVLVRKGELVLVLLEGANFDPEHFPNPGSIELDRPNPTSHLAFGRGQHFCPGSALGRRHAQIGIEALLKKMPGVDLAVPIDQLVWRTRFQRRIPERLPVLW
UniProt P45983, 1-384 isoform 3: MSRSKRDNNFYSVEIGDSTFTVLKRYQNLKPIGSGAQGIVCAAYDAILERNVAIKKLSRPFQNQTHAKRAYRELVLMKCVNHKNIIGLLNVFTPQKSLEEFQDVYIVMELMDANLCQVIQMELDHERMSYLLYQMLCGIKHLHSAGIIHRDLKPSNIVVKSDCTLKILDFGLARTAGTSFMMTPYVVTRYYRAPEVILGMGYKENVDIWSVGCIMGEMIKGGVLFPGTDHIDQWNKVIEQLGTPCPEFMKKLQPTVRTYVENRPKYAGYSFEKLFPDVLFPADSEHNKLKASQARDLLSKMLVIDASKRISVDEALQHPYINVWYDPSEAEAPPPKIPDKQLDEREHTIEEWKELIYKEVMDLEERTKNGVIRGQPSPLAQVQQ
UniProt P28221, whole entry: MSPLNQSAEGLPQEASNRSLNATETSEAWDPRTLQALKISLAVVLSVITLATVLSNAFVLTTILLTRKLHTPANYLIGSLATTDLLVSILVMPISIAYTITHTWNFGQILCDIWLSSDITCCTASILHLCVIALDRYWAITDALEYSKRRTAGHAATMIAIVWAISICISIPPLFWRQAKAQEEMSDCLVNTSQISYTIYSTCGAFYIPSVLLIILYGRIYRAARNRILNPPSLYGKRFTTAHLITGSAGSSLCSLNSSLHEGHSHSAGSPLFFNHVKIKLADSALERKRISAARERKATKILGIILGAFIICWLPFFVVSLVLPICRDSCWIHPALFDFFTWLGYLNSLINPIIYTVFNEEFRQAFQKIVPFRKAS

SMILES	target or system	test	system	conditions	how to read	measurement	value
NC[C@@H](NC[C@@H]1CCCN1C[C@@H](CO)NC[C@@H](NCCC12CC3CC(CC(C3)C1)C2)c1ccccc1)c1ccccc1	Klebsiella pneumoniae	bacterial growth		compound alone		IC50	> 24000 nM
Nc1cc(S(=O)(=O)O)cc2cc(S(=O)(=O)O)cc(O)c12	Escherichia coli	bacterial growth, broth microdilution	expressing OXA-48	16 µg/mL, together with: ampicillin	MIC of ampicillin	MIC of ampicillin	512 µg/mL
C[C@H](CS)C(=O)N[C@@H](Cc1c[nH]c2ccccc12)C(=O)O	Enterobacter aerogenes		VIM-1 producing	50 µM, together with: meropenem		MIC of meropenem	16 µg/mL
CCc1nc(N)nc(N)c1C#C[C@H](C)c1cc(OC)cc(-c2ccncc2)c1	Staphylococcus aureus	broth microdilution	ATCC 43300 MRSA	18 h, 37 °C		MIC	0.312 µg/mL (≈ 0.837 µM)
N#Cc1cc(S(=O)(=O)Nc2cccc(C(=O)NC3CCN(c4ncnc5[nH]cnc45)CC3)c2)ccc1F	HCoV-OC43	viral infection		concentration not given		inhibition	45.4%
CC(C)(C)c1ccc(C(=O)Nc2cc(Cl)c(F)cc2C(=O)O)cc1	Trypanosoma brucei		bloodstream form, 90-13	10 µM		growth inhibition	32 ± 11%
COCCCNc1cc(C(=O)NC2CC3CCC(C2)N3c2ccc(C(=O)NCc3ccccc3)cn2)ccc1C(N)=O (stereo not shown)	Plasmodium berghei	luciferase	Huh-7, ANKA	44 h post-infection, liver stage		EC50	1200 ± 160 nM
C=CC(=O)Nc1cc(-n2c(=O)ccc3cnc4ccc(-c5cn[nH]c5)cc4c32)ccc1C	HCT-116	cell growth		72 h		GI50	> 10000 nM
O=c1[nH]c2sc3c(c2c(=O)n1O)CCCC3	HIV-1	viral replication, MAGI	P4/R5			EC50	21000 ± 1000 nM
COc1cc(-c2cc(C)cc(C)c2)cc(C(C)C#Cc2c(C)nc(N)nc2N)c1 (racemic)	Candida glabrata	Alamar Blue				MIC	3 µg/mL (≈ 7.76 µM)
CC(C)C(C(=O)N(Cc1ccc(C2CCCCC2)cc1)c1ccc(C(=O)O)cc1)N(C)S(=O)(=O)c1c(F)c(F)c(F)c(F)c1F (stereo not shown)			NSG mice, Pa03C xenograft	ip, 10 mg/kg once daily, 15 days	baseline: vehicle	tumour growth delay	54 to 62%
CC(C)=C1CC[C@]23CO[C@H](C2)[C@@](O)(C(=O)O)CC[C@@H]13	Arabidopsis thaliana		Col-0, seedlings	50 µg/mL, together with: BCAA		root length	0.842 cm
COc1cc(-c2c(C)cccc2C)cc(C(C)C#Cc2c(C)nc(N)nc2N)c1 (racemic)	Candida glabrata	Alamar Blue				MIC	24 µg/mL (≈ 62.1 µM)
NC[C@@H](NC[C@@H]1CCCN1C[C@@H](CO)NC[C@@H](NCCc1ccc(Cl)c(Cl)c1)c1ccccc1)c1ccccc1	Klebsiella pneumoniae	bacterial growth		8 µM, fold shift of IC50, together with: amikacin		potentiation of amikacin	0.8 fold
O=S(=O)(O)c1ccc2c(c1)Cc1cc(S(=O)(=O)O)ccc1-2	Escherichia coli	bacterial growth, broth microdilution	expressing OXA-48	8 µg/mL, together with: ampicillin	MIC of ampicillin	MIC of ampicillin	256 µg/mL
COC(=O)[C@@]1(C)C=C(C(=O)Nc2ccc(C)c(C(=O)Nc3ccc(Nc4nccc(-c5cccnc5)n4)cc3)c2)C(=O)CC1	Mitogen-activated protein kinase 8 (MAPK8, Homo sapiens, UniProt P45983)	kinase activity, inhibitor		0.0007527 µM, unit not given, together with: 10 mM GSH	baseline: DMSO	remaining activity	0.95
CC(CCN[C@H](CN[C@H](CO)CN1CCC[C@H]1CN[C@H](CN)c1ccccc1)c1ccccc1)c1ccccc1 (stereo partly shown)	Klebsiella pneumoniae	bacterial growth		24 µM, fold shift of IC90, together with: amikacin		potentiation of amikacin	2.6 fold
NCCNCCSc1ccccc1			n-octanol/phosphate buffer	pH 7.4, average of 10, 25, 50 µg/mL		logP	-0.6
O=C(CCN(CCC(=O)N[C@@H](Cc1c[nH]c2ccccc12)C(=O)O)C(=O)CCN(CCC(=O)N(CCC(=O)N[C@@H](Cc1c[nH]c2ccccc12)C(=O)O)CCC(=O)N[C@@H](Cc1c[nH]c2ccccc12)C(=O)O)C(=O)CCOCC(COCCC(=O)N(CCC(=O)N(CCC(=O)N[C@@H](Cc1c[nH]c2ccccc12)C(=O)O)CCC(=O)N[C@@H](Cc1c[nH]c2ccccc12)C(=O)O)CCC(=O)N(CCC(=O)N[C@@H](Cc1c[nH]c2ccccc12)C(=O)O)CCC(=O)N[C@@H](Cc1c[nH]c2ccccc12)C(=O)O)(COCCC(=O)N(CCC(=O)N(CCC(=O)N[C@@H](Cc1c[nH]c2ccccc12)C(=O)O)CCC(=O)N[C@@H](Cc1c[nH]c2ccccc12)C(=O)O)CCC(=O)N(CCC(=O)N[C@@H](Cc1c[nH]c2ccccc12)C(=O)O)CCC(=O)N[C@@H](Cc1c[nH]c2ccccc12)C(=O)O)COCCC(=O)N(CCC(=O)N(CCC(=O)N[C@@H](Cc1c[nH]c2ccccc12)C(=O)O)CCC(=O)N[C@@H](Cc1c[nH]c2ccccc12)C(=O)O)CCC(=O)N(CCC(=O)N[C@@H](Cc1c[nH]c2ccccc12)C(=O)O)CCC(=O)N[C@@H](Cc1c[nH]c2ccccc12)C(=O)O)N[C@@H](Cc1c[nH]c2ccccc12)C(=O)O	Enterovirus A71	viral replication	VP1 S184T P246S resistant			EC50	2400 ± 600 nM
CC1(C)CC[C@]2(C(=O)O)CC[C@]3(C)C(=CC[C@@H]4[C@@]5(C)CC[C@H](OC(=O)NCc6ccccc6)C(C)(C)[C@@H]5CC[C@]43C)[C@@H]2C1			C57BL/6 mice, plasma	intraperitoneal, 85 µmol/kg		AUC(0-t)	63.7 µM·h

SMILES	target or system	test	system	conditions	how to read	measurement	value
CCCCCCCCCCCCNC(=O)N[C@H](C(=O)N[C@H]1/C=C/CCNC(=O)/C=C/[C@H](C)NC1=O)C(C)C	Mino	cell viability, CellTiter-Glo		24 h		EC50	64.4 ± 2.1 nM
CC(C)Oc1c(NC(=O)c2ccc(NC(=O)[C@H](CC(N)=O)NC(=O)c3cc(F)c(/N=N/c4c(Cl)cc(C#N)cc4Cl)c(F)c3)cc2)ccc(C(=O)N/N=C/c2c(F)cc(C(=O)O)cc2F)c1O	Escherichia coli		BW25113	after 1 h irradiation at 365 nm		MIC	> 6.4 µg/mL
O=C(O)c1ccc(-c2cccc(C(=O)O)c2)cc1	Escherichia coli	bacterial growth, broth microdilution	expressing OXA-48	8 µg/mL, together with: ampicillin	MIC of ampicillin	MIC of ampicillin	512 µg/mL
CC(C)C(c1ccc(-c2ccccc2)cc1)n1ccnc1 (stereo not shown)	cyp121	binding				Kd	2900 ± 590 nM
COc1ccc(S(=O)(=O)Nc2cccc(C(=O)NC3CCN(c4ncnc5[nH]cnc45)CC3)c2)cc1[N+](=O)[O-]	HCoV-OC43	viral infection		concentration not given		inhibition	64.1%
CC(C)C[C@@H](NC(=O)[C@H](NC(=O)[C@H]1CCCN1)[C@H](C)O)C(=O)N[C@H](Cc1c[nH]cn1)C(=O)N[C@@H](C(=O)N[C@H](Cc1c[nH]cn1)C(=O)N[C@H](CC(N)=O)C(=O)N[C@H](CCCNC(=N)N)C(=O)N[C@H](CCCNC(=N)N)C(=O)N[C@H](CCCNC(=N)N)C(=O)N[C@H](CCCNC(=N)N)C(=O)N[C@H](CCCNC(=N)N)C(N)=O)[C@H](C)O			healthy human, plasma	oral, 1 160 mg daily, days 8-12 pre-dose, mean		Css trough	1.28 ng/mL
O=S(=O)(O)c1ccc2cc(S(=O)(=O)O)ccc2c1	Escherichia coli	bacterial growth, inhibitor, broth microdilution	expressing OXA-48	256 µg/mL, together with: ampicillin	baseline: ampicillin alone	MIC fold reduction	16 fold
CC(c1ccc(-c2ccc(C(F)(F)F)cc2)cc1)n1ccnc1 (stereo not shown)	cyp121	binding				Kd	8600 ± 2000 nM
N#Cc1ccc(S(=O)(=O)Nc2cccc(C(=O)NC3CCN(c4ncnc5[nH]cnc45)CC3)c2)cc1	HCoV-OC43	viral infection		concentration not given		inhibition	70.6%
NCc1ccc(-c2ncc(OCC3CCNCC3)nc2-c2ccc(-c3ccoc3)cc2)cc1	Zika virus		ZIKV-FLR, C57BL/6 mice, interferon receptor knockout, plasma	intraperitoneal, 15 mg/kg every 12 h, 24 h, started 1 h before infection		reduction in viral RNA	96%
O=C(NC1CCN(c2ncnc3[nH]cnc23)CC1)c1cccc(NS(=O)(=O)c2ccc(F)cc2)c1	HCoV-OC43	viral infection		concentration not given		inhibition	15%
NC[C@@H](NC[C@@H]1CCCN1C[C@@H](CO)NC[C@@H](NCCc1ccc(-c2ccccc2)cc1)c1ccccc1)c1ccccc1	Escherichia coli	bacterial growth		compound alone		IC90	22300 nM
CN1CC[C@]23c4c5ccc(O)c4O[C@H]2c2ncc(-c4ccc(Cl)cc4)cc2C[C@@]3(OCCCc2ccccc2)[C@H]1C5			CD-1 mouse, chemotherapy-induced neuropathy	sc, 10 mg/kg, day 1	baseline: morphine 10 mg/kg	AUC increase	152%
[11CH3]Nc1ccc(C(=O)C2CCN(C3Cc4ccccc4CC3O)CC2)cc1 (single isomer, unassigned)			Sprague-Dawley rat, normal, liver	dose not given, 30 min		radioactivity uptake	2.44 %ID/g
COc1ccc(S(=O)(=O)Nc2cccc(C(=O)NC3CCN(c4ncnc5[nH]cnc45)CC3)c2)cc1	HCoV-OC43	viral infection		concentration not given		inhibition	42.2%
COc1ccc(CN[C@@H]2CO[C@H](C(c3ccccc3)c3ccccc3)C[C@H]2O)cc1	5-hydroxytryptamine receptor 1D (HTR1D, Homo sapiens, UniProt P28221)	radioligand binding		10 µM, together with: [3H]GR-125743		inhibition	-6.2%
O=c1c2ccc(Oc3ccc(OC(F)(F)F)cc3)cc2[nH]c2cc(F)cc(Cl)c12	Toxoplasma gondii	parasite growth	RH cytochrome b T222P			EC50	0.704 nM
O=S(=O)(O)c1ccc(-c2ccc(S(=O)(=O)O)cc2)cc1	Escherichia coli	bacterial growth, broth microdilution	expressing OXA-48	32 µg/mL, together with: ampicillin	MIC of ampicillin	MIC of ampicillin	256 µg/mL
NC[C@@H](NC[C@@H]1CCCN1C[C@@H](CO)NC[C@@H](NCCC1CC2CCC1C2)c1ccccc1)c1ccccc1 (stereo partly shown)	Acinetobacter baumannii	bacterial growth		8 µM, fold shift of IC90, together with: amikacin		potentiation of amikacin	1 fold
O=c1c2ccc(Oc3ccc(OC(F)(F)F)cc3)cc2[nH]c2cc(F)cc(F)c12	Toxoplasma gondii	parasite growth	T222P mutant		baseline: T222P over RH strain	EC50 ratio	1.51

Some of these lines once more:
SMILES	target or system	test	system	conditions	how to read	measurement	value
COc1cc(-c2c(C)cccc2C)cc(C(C)C#Cc2c(C)nc(N)nc2N)c1 (racemic)	Candida glabrata	Alamar Blue				MIC	24 µg/mL (≈ 62.1 µM)
NC[C@@H](NC[C@@H]1CCCN1C[C@@H](CO)NC[C@@H](NCCc1ccc(Cl)c(Cl)c1)c1ccccc1)c1ccccc1	Klebsiella pneumoniae	bacterial growth		8 µM, fold shift of IC50, together with: amikacin		potentiation of amikacin	0.8 fold
O=S(=O)(O)c1ccc2c(c1)Cc1cc(S(=O)(=O)O)ccc1-2	Escherichia coli	bacterial growth, broth microdilution	expressing OXA-48	8 µg/mL, together with: ampicillin	MIC of ampicillin	MIC of ampicillin	256 µg/mL
COC(=O)[C@@]1(C)C=C(C(=O)Nc2ccc(C)c(C(=O)Nc3ccc(Nc4nccc(-c5cccnc5)n4)cc3)c2)C(=O)CC1	Mitogen-activated protein kinase 8 (MAPK8, Homo sapiens, UniProt P45983)	kinase activity, inhibitor		0.0007527 µM, unit not given, together with: 10 mM GSH	baseline: DMSO	remaining activity	0.95
CC(CCN[C@H](CN[C@H](CO)CN1CCC[C@H]1CN[C@H](CN)c1ccccc1)c1ccccc1)c1ccccc1 (stereo partly shown)	Klebsiella pneumoniae	bacterial growth		24 µM, fold shift of IC90, together with: amikacin		potentiation of amikacin	2.6 fold
NCCNCCSc1ccccc1			n-octanol/phosphate buffer	pH 7.4, average of 10, 25, 50 µg/mL		logP	-0.6
